Published values from different studies.
Each numbered part is a random draw from the data of one study; scales do not carry over between parts. Changes are numbered by the printed parent chain.

Block 1
Target: Histone acetyltransferase KAT6A, both winged helices, GST fusion (KAT6A, Homo sapiens, UniProt Q92794, residues 1-181)
Technique: protein binding microarray
Molecule type: double-stranded DNA, one strand shown
Sample: in vitro
Tested at: not given
Setting: 8-mer, flanks averaged, mean of 2 arrays, mostly near background
Reference: not given
Direction: higher = stronger binding
Residues (chain): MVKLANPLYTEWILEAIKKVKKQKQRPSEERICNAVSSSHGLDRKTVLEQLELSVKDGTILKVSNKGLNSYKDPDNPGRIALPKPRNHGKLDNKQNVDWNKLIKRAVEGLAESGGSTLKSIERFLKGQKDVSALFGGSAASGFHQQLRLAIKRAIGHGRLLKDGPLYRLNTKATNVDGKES
Sequence | E-score
CATTACGG | 0.165
CCTACCTA | -0.248
CGAGACCG | 0.206
AAGGGCAC | -0.236
CGGACCCC | 0.125
AGGTTCTA | -0.135
AAGATATA | -0.0806
AGAAGGGG | -0.233
CGTTGTTC | 0.163
TGACCTCA | -0.137
GATTGATA | -0.0297
CCCACCCG | 0.0747
CACGTATC | -0.0831
AAGCACGG | 0.146
AGACAACA | -0.111
AGCCACGC | 0.0618
CGTCGGAA | 0.273

Block 2
Target: Fragile X messenger ribonucleoprotein 1, C-terminal low-complexity region (Fmr1, Mus musculus, UniProt P35922)
Technique: RNA Bind-n-Seq
Molecule type: RNA
Sample: in vitro
Tested at: 200 nM
Setting: whole 134-nt RNA, ends assumed
With: 150 mM LiCl
Reference: input library
Direction: higher = stronger binding
All molecules: 7-deaza-guanosine replaces G
Shared flanks, not repeated: GGGAGUUCUACAGUCCGACGAUC … UGGAAUUCUCGGGUGUCAAGG
Sequence | log2 enrichment
UGGCCCUGGUGGCAUGCGGGGAGGAAGAGGUGGCCUCAUGGACCGUGGUGGUCCCGGUGGAAUGUUCAGAGGUGGCCGUGGUGGAGACAG | -0.83
CAAGUCCUGUGCUACACAUCGUAUGUACCGAAUCGGAAAAAGGAAAAAAAGGUGGAAAGUAUUAUGUUACGCCGUUCGGAUCUGCACUUC | -1.43
UCCUGUGCUACACAUCGUAUGUACCGAAUCGGGGAAAAAGGGGAAAAAGGGGAAAAAGGAAAGUAUUAUGUUACGCCGUUCGGAUCUGCA | -0.182
ACCAUGCAGGUGGGCAUCUUUGGGAAGUGGGGCAAGGGAGGGAUAGGGAGGGGGGUAACACUUUGGGAACAGGUGGUCCCAGGUCGUUUC | 1.4
UCCUGUGCUACACAUCGUAUGUACCGAAUCAAAUUUUUAAAUUUUUAAACCCCCCCAAAAAAGUAUUAUGUUACGCCGUUCGGAUCUGCA | 2.08
UAACUUUAGAGGAGGAUCUGAUGGAUAUGGCAGUGGACGUGGAUUUGGGGAUGGCUAUAAUGGGUAUGGAGGAGUACCUGGAGGUGGCAA | -0.745
CUGUGCUACACAUCGUAUGUACCGAAUCGGGUUUUUUUGGUUUUUUUGGGGUUUUUUUGGGGAAAGUAUUAUGUUACGCCGUUCGGAUCU | 1.05
GUCCUGUGCUACACAUCGUAUGUACCGAAUCGGGGUUUUUGGUUUUUGGGGUUUUUGGGAAAGUAUUAUGUUACGCCGUUCGGAUCUGCA | -0.928
UUUAUCAUGAGGAGCUCAACGCGCCCAUACGGAGAAACAAAGAAGAGCCCAAGGCCCGGCCCUUGAGAGUAGGUGACACGGAGAAGCCAG | -1
CUCAAGUCCUGUGCUACACAUCGUAUGUACCGAAUCGGUGGGGUGGGGUGGGGAAAGUAUUAUGUUACGCCGUUCGGAUCUGCACUUCCA | -0.178

Block 3
Target: CCNB2, cyclin fold, Cln2 fusion (human)
Technique: yeast growth competition, sequencing
Sample: yeast
Setting: strong parent motif
Reference: not given
Direction: higher = stronger binding
Starting sequence: E2F1 docking peptide (human); PPVKRRLDFETDH
Substitution | normalised enrichment score
T11C | 3.9
L7I | 2.65
R5T | 1.3
F9Y | 0.862
K4H | 1.31
K4C | 2.79
V3E | 1.52
R5W | -0.0498
T11M | 4.1
R6Q | 2.61
P2I | 2.92
F9K | -0.154
L7C | 0.263
K4S | 2.23
V3I | 3.77

Further values, each from its own experiment
Substance | target | test | system | setting | how to read | quantity | result
PhoQ, residues 284 288 289 292 302 303 AEGLLW | PhoP, residues 12 14 15 18 19 SFCSL (Escherichia coli, UniProt P23836) | Sort-seq, refers to: YFP reporter | E. coli | PhoQ-PhoP variant library, with: 10 µM Mg2+ | reference: high Mg2+ state, higher = stronger signaling | fold induction | 4.67

Repeated from above (block 3):
Substitution | normalised enrichment score
R5T | 1.3
F9Y | 0.862
K4H | 1.31
K4C | 2.79
V3E | 1.52
R5W | -0.0498
T11M | 4.1
